Published values gathered from unrelated publications.
Parts stem from different laboratories: compare values within a part only.

Block 1 — technique: protein-binding microarray; molecule type: double-stranded DNA, one strand shown; matrix: in vitro; tested at: 2200 nM top; notes: 60-bp whole probe; with: salmon DNA 0.4 mg/ml; baseline: random background probes; reading: higher = stronger binding; endpoint: fitted relative affinity
Target: Interferon regulatory factor 7, full length, phosphomimetic (IRF7, Homo sapiens, UniProt Q92985, residues 1-503, S471D/S472D/S475D/S476D/S477D/S483D/S484D/S487D)
Residues (chain): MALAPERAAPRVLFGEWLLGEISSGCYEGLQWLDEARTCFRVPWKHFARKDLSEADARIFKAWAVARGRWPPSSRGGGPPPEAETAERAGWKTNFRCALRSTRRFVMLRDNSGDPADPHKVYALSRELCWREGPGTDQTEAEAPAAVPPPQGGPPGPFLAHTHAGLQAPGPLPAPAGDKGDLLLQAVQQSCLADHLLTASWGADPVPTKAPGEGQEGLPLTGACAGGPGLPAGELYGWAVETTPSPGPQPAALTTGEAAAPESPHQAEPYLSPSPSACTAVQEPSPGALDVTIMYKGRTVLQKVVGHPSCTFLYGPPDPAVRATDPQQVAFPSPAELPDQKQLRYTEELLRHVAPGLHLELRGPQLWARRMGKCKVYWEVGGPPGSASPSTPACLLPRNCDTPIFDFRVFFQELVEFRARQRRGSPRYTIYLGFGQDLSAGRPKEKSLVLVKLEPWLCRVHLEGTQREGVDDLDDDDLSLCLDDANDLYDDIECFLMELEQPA
GCCTAGCACGACGAACCGGGGTTTCGAGACGTGCTAGTCTTGATTCGCTTGACGCTGCTG: 1.12 z-score
GCCTAGCACGACGGTATCGACACTGTGGACGTGCTAGTCTTGATTCGCTTGACGCTGCTG: 0.0668 z-score
GCCTAGCACTTAGGTGTCGACACTGGGTTAGTGCTAGTCTTGATTCGCTTGACGCTGCTG: -0.0875 z-score

Block 2 — technique: protein binding microarray; molecule type: double-stranded DNA, one strand shown; matrix: in vitro; tested at: not given; baseline: not given; reading: higher = stronger binding; endpoint: E-score
Target: Histone acetyltransferase KAT6A, winged helix 1, GST fusion (KAT6A, Homo sapiens, UniProt Q92794, residues 1-85)
Notes: 8-mer, flanks averaged, mean of 2 arrays, mostly near background
Construct (chain): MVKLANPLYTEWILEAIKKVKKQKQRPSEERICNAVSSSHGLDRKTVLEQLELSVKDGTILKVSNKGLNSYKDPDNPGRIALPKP
GCTGCTAC: 0.0645
ACCATAGT: -0.0688
CTTACTAC: -0.0429

Block 3 — technique: aptamer microarray, sandwich; molecule type: DNA with 2'F-ANA; matrix: in vitro; tested at: 200 nM; with: Cy3 exosite-II aptamer, 400 nM; reading: higher = stronger binding; endpoint: mean fluorescence intensity; sequence: GGTTGGTGTGGTTGG
Target: Prothrombin, mature alpha-thrombin (F2, Homo sapiens, UniProt P00734)
Notes: whole 15-mer aptamer, many near background
2'F-ANA at 1 2 4 5 6 7 10 14 15: 46.3 a.u.
2'F-ANA at 2 4 6 8 9 14 15: 85.7 a.u.
2'F-ANA at 1 2 3 4 6 11: 123 a.u.
2'F-ANA at 1 3 4 5 8 9 10 14 15: 47.8 a.u.
2'F-ANA at 2 3 8 9 11 13: 649 a.u.

Further values, each from its own experiment
PhoQ, residues 284 288 289 292 302 303 SSYNSA  fold induction (PhoP, residues 12 14 15 18 19 QQAYL (Escherichia coli, UniProt P23836); Sort-seq, refers to: YFP reporter; E. coli; PhoQ-PhoP variant library, with: 10 µM Mg2+; baseline: high Mg2+ state, higher = stronger signaling): 17.8

For quick reference, copied from above (block 3):
2'F-ANA at 1 3 4 5 8 9 10 14 15: 47.8 a.u.
